Assay results of several laboratories.
Parts stem from different laboratories: compare values within a part only.
UniProt P06493, sequence (whole entry, looked up): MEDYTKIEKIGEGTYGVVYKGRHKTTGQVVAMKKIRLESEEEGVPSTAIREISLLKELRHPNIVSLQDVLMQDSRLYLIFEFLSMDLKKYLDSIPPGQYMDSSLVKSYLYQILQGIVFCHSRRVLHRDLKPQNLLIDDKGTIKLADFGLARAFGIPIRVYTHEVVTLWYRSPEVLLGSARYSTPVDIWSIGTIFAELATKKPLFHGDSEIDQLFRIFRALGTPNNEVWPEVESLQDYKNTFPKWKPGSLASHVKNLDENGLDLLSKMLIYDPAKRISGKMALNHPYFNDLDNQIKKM
UniProt Q5VT25, sequence (whole entry, looked up): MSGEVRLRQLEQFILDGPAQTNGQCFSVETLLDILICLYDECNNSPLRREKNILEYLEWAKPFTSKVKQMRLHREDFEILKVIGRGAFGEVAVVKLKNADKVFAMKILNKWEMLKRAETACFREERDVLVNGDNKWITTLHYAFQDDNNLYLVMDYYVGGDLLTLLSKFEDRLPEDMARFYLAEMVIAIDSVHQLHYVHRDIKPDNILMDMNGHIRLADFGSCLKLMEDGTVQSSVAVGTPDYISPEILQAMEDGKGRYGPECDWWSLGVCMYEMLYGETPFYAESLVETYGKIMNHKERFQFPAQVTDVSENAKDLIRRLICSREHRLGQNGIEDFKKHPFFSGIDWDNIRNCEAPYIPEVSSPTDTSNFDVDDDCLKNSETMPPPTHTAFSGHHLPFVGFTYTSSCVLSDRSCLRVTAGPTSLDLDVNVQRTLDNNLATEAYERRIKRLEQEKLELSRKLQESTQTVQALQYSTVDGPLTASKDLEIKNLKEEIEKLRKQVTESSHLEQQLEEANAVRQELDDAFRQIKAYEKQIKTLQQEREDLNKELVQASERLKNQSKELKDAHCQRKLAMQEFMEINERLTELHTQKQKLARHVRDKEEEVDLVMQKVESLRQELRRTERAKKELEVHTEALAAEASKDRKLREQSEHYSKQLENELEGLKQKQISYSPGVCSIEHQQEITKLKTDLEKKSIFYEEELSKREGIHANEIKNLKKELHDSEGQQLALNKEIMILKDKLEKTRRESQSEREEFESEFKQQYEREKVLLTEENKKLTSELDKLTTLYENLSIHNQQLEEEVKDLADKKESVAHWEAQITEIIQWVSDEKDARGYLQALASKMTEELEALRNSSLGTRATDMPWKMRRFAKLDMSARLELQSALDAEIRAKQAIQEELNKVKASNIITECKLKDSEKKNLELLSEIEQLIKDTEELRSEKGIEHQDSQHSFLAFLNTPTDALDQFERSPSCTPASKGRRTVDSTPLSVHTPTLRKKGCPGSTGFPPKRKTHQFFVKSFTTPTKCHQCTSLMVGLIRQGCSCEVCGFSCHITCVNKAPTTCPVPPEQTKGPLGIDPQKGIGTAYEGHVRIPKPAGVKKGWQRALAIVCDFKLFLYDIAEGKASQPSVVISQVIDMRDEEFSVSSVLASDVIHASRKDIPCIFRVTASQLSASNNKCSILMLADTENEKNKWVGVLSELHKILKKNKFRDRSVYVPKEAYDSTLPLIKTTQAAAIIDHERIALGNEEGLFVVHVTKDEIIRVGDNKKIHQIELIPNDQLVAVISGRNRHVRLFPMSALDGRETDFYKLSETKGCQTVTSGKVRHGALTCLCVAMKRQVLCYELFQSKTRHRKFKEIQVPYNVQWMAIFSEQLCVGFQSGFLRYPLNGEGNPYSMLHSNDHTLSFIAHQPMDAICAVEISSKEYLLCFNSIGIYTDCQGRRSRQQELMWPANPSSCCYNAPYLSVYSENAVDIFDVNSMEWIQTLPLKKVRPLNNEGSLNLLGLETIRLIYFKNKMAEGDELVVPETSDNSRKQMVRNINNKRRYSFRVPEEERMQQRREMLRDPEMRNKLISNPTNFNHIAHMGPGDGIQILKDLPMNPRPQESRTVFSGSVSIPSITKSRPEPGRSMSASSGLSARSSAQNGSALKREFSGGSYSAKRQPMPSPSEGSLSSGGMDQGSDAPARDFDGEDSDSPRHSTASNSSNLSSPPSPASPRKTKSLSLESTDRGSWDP
UniProt O15264, sequence (whole entry, looked up): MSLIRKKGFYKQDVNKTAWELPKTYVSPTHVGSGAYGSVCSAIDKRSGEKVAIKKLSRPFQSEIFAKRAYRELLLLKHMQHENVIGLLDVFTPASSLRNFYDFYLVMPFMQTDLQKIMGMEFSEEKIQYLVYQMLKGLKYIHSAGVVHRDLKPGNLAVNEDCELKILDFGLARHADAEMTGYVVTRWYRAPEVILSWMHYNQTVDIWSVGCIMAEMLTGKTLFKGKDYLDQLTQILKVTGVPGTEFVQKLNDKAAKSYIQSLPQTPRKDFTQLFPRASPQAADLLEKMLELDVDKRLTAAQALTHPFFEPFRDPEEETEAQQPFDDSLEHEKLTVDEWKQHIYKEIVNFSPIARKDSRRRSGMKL
UniProt Q9UKI8, sequence (whole entry, looked up): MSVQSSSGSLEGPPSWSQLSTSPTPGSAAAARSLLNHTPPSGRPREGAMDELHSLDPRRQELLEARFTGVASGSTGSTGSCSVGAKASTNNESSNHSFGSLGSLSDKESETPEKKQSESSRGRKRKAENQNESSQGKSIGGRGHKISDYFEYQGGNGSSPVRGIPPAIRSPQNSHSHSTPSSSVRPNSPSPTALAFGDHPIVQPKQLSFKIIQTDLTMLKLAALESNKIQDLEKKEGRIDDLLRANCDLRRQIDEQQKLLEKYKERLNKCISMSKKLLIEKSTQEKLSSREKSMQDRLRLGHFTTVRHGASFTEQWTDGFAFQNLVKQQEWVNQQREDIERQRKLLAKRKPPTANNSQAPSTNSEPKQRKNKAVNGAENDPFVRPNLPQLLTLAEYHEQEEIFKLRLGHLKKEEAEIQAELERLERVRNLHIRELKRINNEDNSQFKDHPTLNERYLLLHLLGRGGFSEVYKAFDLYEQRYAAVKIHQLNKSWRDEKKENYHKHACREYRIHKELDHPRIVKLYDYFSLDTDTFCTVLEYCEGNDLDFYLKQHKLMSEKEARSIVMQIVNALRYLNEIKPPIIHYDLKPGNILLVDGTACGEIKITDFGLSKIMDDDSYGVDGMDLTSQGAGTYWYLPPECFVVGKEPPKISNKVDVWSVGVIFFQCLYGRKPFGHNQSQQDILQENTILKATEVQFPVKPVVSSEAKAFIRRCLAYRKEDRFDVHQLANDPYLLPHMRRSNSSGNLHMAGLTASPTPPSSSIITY
UniProt P0C1S8, sequence (whole entry, looked up): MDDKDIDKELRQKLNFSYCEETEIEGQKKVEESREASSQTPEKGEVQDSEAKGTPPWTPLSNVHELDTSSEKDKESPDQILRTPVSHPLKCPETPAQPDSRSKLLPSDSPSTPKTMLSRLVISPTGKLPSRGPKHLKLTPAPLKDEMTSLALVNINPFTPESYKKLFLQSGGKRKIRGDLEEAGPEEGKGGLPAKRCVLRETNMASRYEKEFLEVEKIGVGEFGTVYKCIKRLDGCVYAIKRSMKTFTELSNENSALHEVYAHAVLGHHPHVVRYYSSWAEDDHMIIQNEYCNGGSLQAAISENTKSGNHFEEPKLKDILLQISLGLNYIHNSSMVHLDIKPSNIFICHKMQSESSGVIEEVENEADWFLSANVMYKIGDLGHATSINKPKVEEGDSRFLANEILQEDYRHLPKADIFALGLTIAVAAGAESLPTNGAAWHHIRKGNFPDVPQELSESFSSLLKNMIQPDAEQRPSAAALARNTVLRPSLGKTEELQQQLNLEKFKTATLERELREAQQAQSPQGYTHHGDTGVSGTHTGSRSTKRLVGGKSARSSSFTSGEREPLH
UniProt P00519, sequence (whole entry, looked up): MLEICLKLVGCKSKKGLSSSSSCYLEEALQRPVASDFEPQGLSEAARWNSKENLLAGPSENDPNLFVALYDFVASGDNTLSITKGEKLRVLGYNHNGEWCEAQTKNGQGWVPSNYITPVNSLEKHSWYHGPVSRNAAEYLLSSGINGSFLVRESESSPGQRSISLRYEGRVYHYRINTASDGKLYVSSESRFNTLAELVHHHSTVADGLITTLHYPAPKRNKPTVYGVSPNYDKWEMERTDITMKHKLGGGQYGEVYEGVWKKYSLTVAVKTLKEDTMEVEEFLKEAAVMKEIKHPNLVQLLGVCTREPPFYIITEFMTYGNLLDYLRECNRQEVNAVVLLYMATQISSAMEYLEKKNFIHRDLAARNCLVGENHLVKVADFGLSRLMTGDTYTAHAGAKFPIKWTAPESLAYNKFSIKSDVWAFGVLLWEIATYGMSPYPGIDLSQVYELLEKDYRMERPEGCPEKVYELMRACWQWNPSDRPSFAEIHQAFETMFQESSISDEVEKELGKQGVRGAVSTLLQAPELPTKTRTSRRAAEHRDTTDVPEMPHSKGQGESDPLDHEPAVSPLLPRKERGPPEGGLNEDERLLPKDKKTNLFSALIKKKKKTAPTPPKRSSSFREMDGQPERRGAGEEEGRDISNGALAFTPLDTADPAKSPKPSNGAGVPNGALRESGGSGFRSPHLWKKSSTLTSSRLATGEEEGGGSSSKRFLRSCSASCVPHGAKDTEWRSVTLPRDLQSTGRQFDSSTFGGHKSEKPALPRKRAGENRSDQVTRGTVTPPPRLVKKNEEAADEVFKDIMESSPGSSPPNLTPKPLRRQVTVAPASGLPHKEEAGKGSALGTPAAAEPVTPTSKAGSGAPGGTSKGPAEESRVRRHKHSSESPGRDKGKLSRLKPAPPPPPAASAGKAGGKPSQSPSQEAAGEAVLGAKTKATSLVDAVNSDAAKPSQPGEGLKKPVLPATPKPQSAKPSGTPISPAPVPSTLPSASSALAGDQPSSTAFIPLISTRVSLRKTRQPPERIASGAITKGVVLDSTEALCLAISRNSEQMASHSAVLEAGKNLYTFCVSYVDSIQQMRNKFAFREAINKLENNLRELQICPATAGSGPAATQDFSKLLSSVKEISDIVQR

Sample 1 — method: RNA Bind-n-Seq; molecule type: RNA; medium: in vitro; concentration: 365 nM; baseline: no-protein control; reading: higher = stronger binding; quantity: RBNS enrichment (R)
Target: RNA binding protein fox-1 homolog 2, RRM domain, GST-SBP tag (RBFOX2, Homo sapiens, UniProt O43251-10, residues 100-194)
Setting: natural RNA segment, single round, ends assumed
Shared flanks, not repeated: GGGAGUUCUACAGUCCGACGAUC … UGGAAUUCUCGGGUGCCAA
Target sequence (chain): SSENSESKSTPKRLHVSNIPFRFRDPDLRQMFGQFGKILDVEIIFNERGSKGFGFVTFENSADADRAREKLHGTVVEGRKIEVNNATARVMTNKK
CAAUUCCUCUUUUUAAGAGAGGUACUACAUUUGAUUUCUCAAUUUCUCAGUUUGUUUUCAAUACAAACAGCAACCACUGAAAUGCAGAAAAUGGUAAUCAAGUGUGAUGU: 0.544
UCUGGCUAUCACCACUGGCCUCUGGGGUCUUCAUAUCUUGCCAUCUCAUCCAGGGUUCCAUGAAAGUUACCCAGGGUCCUCAUGUCCUUCCUUAGAGCCUGAGUGGUGUG: 0.318
UUUUAAACCAUUUCUUUUGUUUAAAUAAAUAAAUAAGUAAAUAAAGCUAGUUCUAUUGAAAUGCAAACCUUUUUGUACCAUCUAUUCUUUAGUAGUUUAAUUAUUGGGAA: 0.503
AAUGCGAGAGCCCCUGGGCCGGUGGCUCUCGGGGGCUGGUCCAUGGGCGGCUGUGGCGUCAGGAUGGAGUCCUAGCUGUGACCUGUGCCCAGGAGGGCGUGAUCCGAGUG: 0.406
GGACACGGGUGCCAGCCAAAAAGUUGGAGUGAAAGACCCUGGCACCCGCCCGACACCUGCGUGAGCCCUAGGAUCCAGGUCCUCUCUCACCUCUGACCCAGCUCCAUGCC: 0.327
UUUCUUACCCAGGAGGCUUCUCUCAGUGGUUGGAAGUAAAACCAUCUCAAUGGGCCUAUACAGGAAAGGCUGUUAAUUUAAGUCUGUCGUUACUUUCUGGCGAAUUUAAC: 0.328
GCCUACUUUACCUGGGCGUCCUGACCCAGCCCAGGGCCCGGUAACCGCAAAGCCCCCAGUCUUCAUGCAGACCUUGAACCCUCCGUCACACCCGCACCAUGUACUCCCAG: 0.751
CUAACAAUCAGCAGAUGGGAGUGUGGGUUCCUUAUGUCACAGGCUGUGCCCCAGCGGUCACUCACAACAUAGGUCUGUUGAGUCUUUUUUAAAUGCACUAGGAGCCAACU: 0.33

Sample 2 — Structure (SMILES): COc1ccc(-c2cnc3c(-c4ccsc4)cnn3c2)cc1; read-out: enzyme activity; mode: inhibitor; concentration: 0.5 µM; baseline: control; quantity: remaining activity
PRKACG (Homo sapiens, UniProt P22612): 93.9%
SRMS (Homo sapiens, UniProt Q9H3Y6): 97.4%
Cyclin-dependent kinase 6, with cyclin D3 (CDK6, Homo sapiens, UniProt Q00534): 33.4%
Cyclin-dependent kinase 1, with cyclin B (CDK1, Homo sapiens, UniProt P06493): 87.2%
PDPK1 (Homo sapiens, UniProt O15530): 96%
PHKG1 (Homo sapiens, UniProt Q16816): 73.2%
RPS6KA5 (Homo sapiens, UniProt O75582): 90.3%
ABL1 (Homo sapiens, UniProt P00519): 72.9%
Cyclin-dependent kinase 4, with cyclin D3 (CDK4, Homo sapiens, UniProt P11802): 82.9%
EPHB1 (Homo sapiens, UniProt P54762): 83.1%

Sample 3 — concentration: 0.1 µM; quantity: remaining binding
Structure (SMILES): Cc1cc(C)c(-n2ccn3nc(-c4cccnc4)cc23)cc1NC(=O)c1cc(C#N)cc(S(F)(F)(F)(F)F)c1
CDC42BPA (Homo sapiens, UniProt Q5VT25); cell-free assay, competition with immobilised ligand: 100%
MAPK13 (Homo sapiens, UniProt O15264); cell-free assay, competition with immobilised ligand: 65.6%
WEE2 (Homo sapiens, UniProt P0C1S8); cell-free assay, competition with immobilised ligand: 77.4%
PAK2 (Homo sapiens, UniProt Q13177); cell-free assay, competition with immobilised ligand: 89.8%
EPHA3 (Homo sapiens, UniProt P29320); cell-free assay, competition with immobilised ligand: 89.8%
MINK1 (Homo sapiens, UniProt Q8N4C8); cell-free assay, competition with immobilised ligand: 88.9%
TLK1 (Homo sapiens, UniProt Q9UKI8); cell-free assay, competition with immobilised ligand: 89.1%
STK10 (Homo sapiens, UniProt O94804); binder, KINOMEscan competition binding; baseline: DMSO: 1.8%
PLK3 (Homo sapiens, UniProt Q9H4B4); cell-free assay, competition with immobilised ligand: 81.8%
PAK4 (Homo sapiens, UniProt O96013); cell-free assay, competition with immobilised ligand: 70.4%

Sample 4 — method: universal PBM; molecule type: double-stranded DNA, one strand shown; medium: in vitro; concentration: not given; reading: higher = stronger binding; quantity: E-score
Target: Sal-like protein 4, full length isoform B (SALL4, Homo sapiens, UniProt Q9UJQ4-2, residues 1-616)
Setting: 8-mer, flanks averaged, mean of replicates
CGCGTACG: 0.0487
CAGTTTCC: -0.0643
CCCGCCAG: -0.171
GCTTGTCC: -0.171
AGTATCTC: 0.0528
AGTACTAG: 0.107
GTCAGCAA: 0.025
CTCGGACC: -0.212

A few entries again (sample 2):
Cyclin-dependent kinase 6, with cyclin D3 (CDK6, Homo sapiens, UniProt Q00534): 33.4%
PHKG1 (Homo sapiens, UniProt Q16816): 73.2%
Cyclin-dependent kinase 1, with cyclin B (CDK1, Homo sapiens, UniProt P06493): 87.2%
